Results of several laboratories.
Sequence of UniProt P20309 (whole entry, looked up): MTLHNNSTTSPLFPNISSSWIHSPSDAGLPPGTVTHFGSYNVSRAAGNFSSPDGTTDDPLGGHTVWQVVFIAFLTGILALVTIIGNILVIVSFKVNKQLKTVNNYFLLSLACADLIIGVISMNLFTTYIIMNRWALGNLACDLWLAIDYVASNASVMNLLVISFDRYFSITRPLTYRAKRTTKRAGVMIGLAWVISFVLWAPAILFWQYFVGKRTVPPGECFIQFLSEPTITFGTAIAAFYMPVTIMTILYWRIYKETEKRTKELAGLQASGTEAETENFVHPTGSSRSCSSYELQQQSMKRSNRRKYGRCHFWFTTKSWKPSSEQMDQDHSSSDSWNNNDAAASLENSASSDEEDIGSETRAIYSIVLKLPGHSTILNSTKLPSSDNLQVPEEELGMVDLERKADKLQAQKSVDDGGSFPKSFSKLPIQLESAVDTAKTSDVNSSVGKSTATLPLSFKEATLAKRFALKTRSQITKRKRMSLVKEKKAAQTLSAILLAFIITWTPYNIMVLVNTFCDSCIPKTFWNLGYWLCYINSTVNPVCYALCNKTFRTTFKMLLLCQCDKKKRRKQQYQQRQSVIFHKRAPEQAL
Sequence of UniProt O94921 (whole entry, looked up): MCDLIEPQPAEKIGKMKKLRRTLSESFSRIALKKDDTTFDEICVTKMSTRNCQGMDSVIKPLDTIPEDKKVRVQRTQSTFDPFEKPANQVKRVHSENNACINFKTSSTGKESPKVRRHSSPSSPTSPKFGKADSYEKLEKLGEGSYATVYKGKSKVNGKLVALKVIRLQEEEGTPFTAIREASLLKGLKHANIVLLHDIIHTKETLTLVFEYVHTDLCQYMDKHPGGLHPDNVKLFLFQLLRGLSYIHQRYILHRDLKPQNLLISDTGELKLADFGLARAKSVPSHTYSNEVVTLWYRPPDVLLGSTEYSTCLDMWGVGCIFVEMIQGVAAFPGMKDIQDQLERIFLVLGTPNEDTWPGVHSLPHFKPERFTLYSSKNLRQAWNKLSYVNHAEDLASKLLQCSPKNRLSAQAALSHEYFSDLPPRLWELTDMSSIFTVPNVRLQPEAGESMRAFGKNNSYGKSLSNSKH
Sequence of UniProt P07949 (whole entry, unmodified, looked up): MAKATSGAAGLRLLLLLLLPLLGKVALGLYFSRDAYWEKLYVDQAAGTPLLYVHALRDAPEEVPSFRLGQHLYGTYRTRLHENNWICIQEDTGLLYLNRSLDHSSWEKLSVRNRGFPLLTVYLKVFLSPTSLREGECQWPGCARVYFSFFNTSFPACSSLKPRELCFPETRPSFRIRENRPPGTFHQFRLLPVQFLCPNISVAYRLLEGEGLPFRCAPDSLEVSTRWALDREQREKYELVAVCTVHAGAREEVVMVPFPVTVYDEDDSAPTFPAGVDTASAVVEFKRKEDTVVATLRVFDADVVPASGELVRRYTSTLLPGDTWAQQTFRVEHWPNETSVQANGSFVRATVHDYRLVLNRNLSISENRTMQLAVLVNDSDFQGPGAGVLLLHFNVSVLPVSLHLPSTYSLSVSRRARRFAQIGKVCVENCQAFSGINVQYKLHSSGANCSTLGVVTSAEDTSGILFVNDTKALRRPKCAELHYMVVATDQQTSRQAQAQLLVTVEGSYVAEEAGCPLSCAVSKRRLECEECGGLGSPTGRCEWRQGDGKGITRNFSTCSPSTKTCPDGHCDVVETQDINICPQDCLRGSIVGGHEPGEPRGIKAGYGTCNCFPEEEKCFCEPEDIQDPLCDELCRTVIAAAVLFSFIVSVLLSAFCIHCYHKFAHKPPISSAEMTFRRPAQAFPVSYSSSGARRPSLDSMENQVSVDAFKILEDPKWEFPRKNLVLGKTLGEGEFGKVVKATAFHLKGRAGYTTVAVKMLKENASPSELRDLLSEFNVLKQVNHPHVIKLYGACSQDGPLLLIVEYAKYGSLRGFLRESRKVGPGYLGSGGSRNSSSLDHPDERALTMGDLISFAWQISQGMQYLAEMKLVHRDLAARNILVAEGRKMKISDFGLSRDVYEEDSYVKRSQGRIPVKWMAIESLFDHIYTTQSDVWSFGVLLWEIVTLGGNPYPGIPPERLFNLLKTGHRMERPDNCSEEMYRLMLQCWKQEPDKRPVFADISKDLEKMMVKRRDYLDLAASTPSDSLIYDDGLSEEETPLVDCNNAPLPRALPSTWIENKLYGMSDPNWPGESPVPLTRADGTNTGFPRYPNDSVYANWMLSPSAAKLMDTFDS
Sequence of UniProt P34969 (whole entry, looked up): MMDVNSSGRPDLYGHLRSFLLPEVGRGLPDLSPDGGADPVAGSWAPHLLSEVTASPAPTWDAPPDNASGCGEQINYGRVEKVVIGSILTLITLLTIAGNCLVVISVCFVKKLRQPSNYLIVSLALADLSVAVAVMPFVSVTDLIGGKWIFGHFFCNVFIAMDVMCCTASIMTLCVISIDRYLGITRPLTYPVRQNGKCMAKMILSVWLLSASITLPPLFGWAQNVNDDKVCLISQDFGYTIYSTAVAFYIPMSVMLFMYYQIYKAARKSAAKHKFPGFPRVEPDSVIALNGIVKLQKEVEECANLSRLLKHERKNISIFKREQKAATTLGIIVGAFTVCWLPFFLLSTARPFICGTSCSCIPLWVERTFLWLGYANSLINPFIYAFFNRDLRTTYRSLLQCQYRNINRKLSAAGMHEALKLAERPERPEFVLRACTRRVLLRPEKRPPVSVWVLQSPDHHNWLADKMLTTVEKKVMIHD
Sequence of UniProt O15530 (whole entry, looked up): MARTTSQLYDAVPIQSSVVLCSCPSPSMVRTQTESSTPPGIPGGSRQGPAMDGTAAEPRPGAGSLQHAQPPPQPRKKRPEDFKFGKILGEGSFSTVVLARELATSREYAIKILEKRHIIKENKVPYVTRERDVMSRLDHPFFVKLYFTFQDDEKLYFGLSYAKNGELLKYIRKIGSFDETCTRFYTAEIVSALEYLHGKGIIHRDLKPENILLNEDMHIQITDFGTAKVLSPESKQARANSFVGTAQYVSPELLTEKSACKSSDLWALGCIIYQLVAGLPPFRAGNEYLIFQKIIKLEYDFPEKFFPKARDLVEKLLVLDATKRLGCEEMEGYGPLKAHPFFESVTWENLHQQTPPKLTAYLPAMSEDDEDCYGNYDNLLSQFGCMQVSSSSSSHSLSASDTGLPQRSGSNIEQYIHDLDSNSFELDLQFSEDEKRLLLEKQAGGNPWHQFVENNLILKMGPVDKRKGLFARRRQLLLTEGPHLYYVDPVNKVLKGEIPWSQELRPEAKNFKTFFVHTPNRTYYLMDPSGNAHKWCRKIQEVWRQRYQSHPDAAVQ
Sequence of UniProt P40763 (whole entry, looked up): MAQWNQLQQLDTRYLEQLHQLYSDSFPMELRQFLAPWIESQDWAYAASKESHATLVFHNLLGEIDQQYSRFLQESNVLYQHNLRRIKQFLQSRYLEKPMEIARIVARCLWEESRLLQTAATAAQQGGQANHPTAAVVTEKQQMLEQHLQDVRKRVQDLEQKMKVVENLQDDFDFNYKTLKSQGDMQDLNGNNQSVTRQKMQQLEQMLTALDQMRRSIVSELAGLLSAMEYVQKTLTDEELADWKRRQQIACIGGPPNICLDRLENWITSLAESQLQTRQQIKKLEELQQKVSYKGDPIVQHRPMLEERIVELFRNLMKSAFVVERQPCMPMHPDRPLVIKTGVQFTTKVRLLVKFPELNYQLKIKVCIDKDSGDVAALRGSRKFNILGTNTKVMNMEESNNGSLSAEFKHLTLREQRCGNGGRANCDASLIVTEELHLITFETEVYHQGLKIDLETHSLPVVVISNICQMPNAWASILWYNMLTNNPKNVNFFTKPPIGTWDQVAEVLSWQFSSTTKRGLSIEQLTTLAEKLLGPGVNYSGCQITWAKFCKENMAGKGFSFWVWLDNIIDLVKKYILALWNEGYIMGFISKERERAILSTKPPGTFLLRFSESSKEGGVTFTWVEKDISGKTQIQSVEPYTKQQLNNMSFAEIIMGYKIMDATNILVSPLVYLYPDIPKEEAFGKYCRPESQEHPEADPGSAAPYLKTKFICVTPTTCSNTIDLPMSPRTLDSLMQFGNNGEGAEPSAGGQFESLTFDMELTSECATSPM
Sequence of UniProt P16234 (whole entry, looked up): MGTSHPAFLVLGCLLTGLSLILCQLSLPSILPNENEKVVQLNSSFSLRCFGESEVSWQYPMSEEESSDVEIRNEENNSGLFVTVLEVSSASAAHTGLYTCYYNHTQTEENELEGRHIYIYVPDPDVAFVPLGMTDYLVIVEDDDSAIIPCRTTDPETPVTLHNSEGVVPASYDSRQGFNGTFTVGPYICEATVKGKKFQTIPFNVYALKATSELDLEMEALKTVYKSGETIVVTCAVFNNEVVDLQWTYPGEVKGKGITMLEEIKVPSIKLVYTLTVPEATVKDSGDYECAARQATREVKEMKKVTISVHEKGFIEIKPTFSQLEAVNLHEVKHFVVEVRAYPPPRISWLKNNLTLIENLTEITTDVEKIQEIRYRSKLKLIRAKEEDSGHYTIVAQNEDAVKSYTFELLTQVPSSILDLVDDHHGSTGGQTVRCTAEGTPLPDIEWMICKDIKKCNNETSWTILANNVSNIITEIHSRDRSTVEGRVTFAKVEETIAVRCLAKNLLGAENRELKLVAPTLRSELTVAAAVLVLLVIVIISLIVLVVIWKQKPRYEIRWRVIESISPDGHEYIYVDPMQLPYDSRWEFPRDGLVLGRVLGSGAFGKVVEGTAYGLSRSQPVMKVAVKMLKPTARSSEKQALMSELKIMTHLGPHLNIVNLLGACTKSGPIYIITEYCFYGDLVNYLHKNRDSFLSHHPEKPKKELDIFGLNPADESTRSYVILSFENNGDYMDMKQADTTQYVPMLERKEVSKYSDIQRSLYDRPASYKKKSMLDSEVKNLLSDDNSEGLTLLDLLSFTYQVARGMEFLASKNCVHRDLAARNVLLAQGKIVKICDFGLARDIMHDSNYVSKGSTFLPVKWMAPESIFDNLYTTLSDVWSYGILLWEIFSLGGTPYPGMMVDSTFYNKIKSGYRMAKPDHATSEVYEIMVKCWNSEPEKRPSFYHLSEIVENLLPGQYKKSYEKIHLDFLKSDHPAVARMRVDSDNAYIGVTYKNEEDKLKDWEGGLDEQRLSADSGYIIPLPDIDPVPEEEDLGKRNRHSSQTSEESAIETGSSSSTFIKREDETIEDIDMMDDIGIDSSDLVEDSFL

SMILES	target	assay	system	conditions	quantity	result
CN1CC[C@]2(C)c3cc(OC(=O)Nc4ccccc4)ccc3N(C)[C@H]12	CHRM3 (Homo sapiens, UniProt P20309)	ligand displacement, radioligand		10 µM	inhibition	1.5%
c1cncc([C@@H]2CCCN2)c1	HTR7 (Homo sapiens, UniProt P34969)	ligand displacement		50 µM	inhibition	-35.5%
Nc1ncc(-c2nc(N3CCOCC3)nc(N3CCOCC3)n2)c(C(F)F)n1	PIK3CD (Homo sapiens, UniProt O00329)	binding, competition with immobilised ligand		10 µM	remaining binding	0%
Cc1nn(C)cc1-c1nc2c(N3CCN(Cc4ccc(Cl)cc4)CC3)c(Cl)cnc2[nH]1	PDGFRA (Homo sapiens, UniProt P16234)	binding, competition with immobilised ligand		1 µM	remaining binding	93%
COc1cc(CCNC(C)c2ccccc2O)c(OC)cc1C#N (stereo not shown)	HTR2B (Homo sapiens, UniProt P41595)	G protein activation, agonist, BRET			Emax	45%
[2H]c1c([2H])c([C@]2([2H])CCCN2C(=O)C(C)(C)Oc2ccc3cn[nH]c3c2)c([2H])c([2H])c1C([2H])([2H])[2H]	PDPK1 (Homo sapiens, UniProt O15530)	binding, competition with immobilised ligand		1 µM	remaining binding	72%
COc1ncccc1-c1cnn2ccc(N3CCN(C(=O)OC(C)C)CC3)nc12	CDK14 (Homo sapiens, UniProt O94921)	binding, competition with immobilised ligand		1 µM	remaining binding	90%
C#Cc1n[nH]c2c(-c3cn(C(C)c4ccccn4)c(=O)[nH]c3=O)cc(F)cc12 (stereo not shown)	RET (Homo sapiens, UniProt P07949, V804M)	enzyme activity, inhibitor		1 µM	inhibition	8.9%
CCN(CC)CCCC[C@H](NC(=O)[C@H](CC(C)C)NC(=O)[C@H](C)NC(=O)[C@H](Cc1ccccc1)NC(=O)c1ccc(C(C)(C)C)cc1)C(=O)N[C@@H](CO)C(=O)OC	Bromodomain adjacent to zinc finger domain protein 2B, bromodomain (BAZ2B, Homo sapiens, UniProt Q9UIF8)	thermal stability, DSF		25 µM	ΔTm	0.17 °C
NC(=O)CC[C@H](NC(=O)[C@@H]1CC[C@@H]2CCN(C(=O)CCCCCC#Cc3cccc4c3CN(C3CCC(=O)NC3=O)C4=O)C[C@H](NC(=O)c3cc4cc(C(F)(F)P(=O)(O)O)ccc4[nH]3)C(=O)N21)C(=O)NC(c1ccccc1)c1ccccc1 (stereo partly shown)	STAT3 (Homo sapiens, UniProt P40763)	protein level, degrader, luciferase	HeLa		Dmax	86 to 88%
